Experimental data pooled from the literature.
Each numbered part is a random draw from the data of one study; scales do not carry over between parts. Substitutions count along the parent as printed.

Study 1
Target: ABI1, truncated, D143A, DHFR fusion (Arabidopsis thaliana)
Technique: DHFR PCA, deep sequencing
Matrix: yeast
Notes: methotrexate growth selection, single substitutions
With: (+)-ABA 200 µM
Baseline: wild-type fitted maximum
Reading: higher = stronger binding
Starting sequence: PYL1, truncated, DHFR fusion (Arabidopsis thaliana); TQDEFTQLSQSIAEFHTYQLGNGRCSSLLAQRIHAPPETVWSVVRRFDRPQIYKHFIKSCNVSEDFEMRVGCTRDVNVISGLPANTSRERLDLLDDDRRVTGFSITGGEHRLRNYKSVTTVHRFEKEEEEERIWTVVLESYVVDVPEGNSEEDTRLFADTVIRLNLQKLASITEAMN; partner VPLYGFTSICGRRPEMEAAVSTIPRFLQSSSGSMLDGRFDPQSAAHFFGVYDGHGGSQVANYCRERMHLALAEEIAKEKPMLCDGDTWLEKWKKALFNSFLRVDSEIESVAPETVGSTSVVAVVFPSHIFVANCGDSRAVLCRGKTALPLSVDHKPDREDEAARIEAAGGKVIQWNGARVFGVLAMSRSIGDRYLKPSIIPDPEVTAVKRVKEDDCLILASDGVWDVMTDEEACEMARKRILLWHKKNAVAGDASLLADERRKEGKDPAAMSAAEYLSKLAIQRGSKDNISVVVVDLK
Variant | relative binding score
G71L | 41.5%
Y141Q | 3.11%
T160H | 83.8%
N22H | 100%
S171R | 99.3%
S80A | 62.6%
T73H | 101%
K126Y | 101%
T154Q | 10.7%
V76Q | -2.42%
I79P | 45.7%

Study 2
Target: Interferon regulatory factor 7, full length, phosphomimetic (IRF7, Homo sapiens, UniProt Q92985, residues 1-503, S471D/S472D/S475D/S476D/S477D/S483D/S484D/S487D)
Technique: protein-binding microarray
Molecule type: double-stranded DNA, one strand shown
Matrix: in vitro
Tested at: 2200 nM top
Notes: 60-bp whole probe
With: salmon DNA 0.4 mg/ml
Baseline: random background probes
Reading: higher = stronger binding
Constant ends, left off below: GCCTAGCAC … GTCTTGATTCGCTTGACGCTGCTG
Construct (chain): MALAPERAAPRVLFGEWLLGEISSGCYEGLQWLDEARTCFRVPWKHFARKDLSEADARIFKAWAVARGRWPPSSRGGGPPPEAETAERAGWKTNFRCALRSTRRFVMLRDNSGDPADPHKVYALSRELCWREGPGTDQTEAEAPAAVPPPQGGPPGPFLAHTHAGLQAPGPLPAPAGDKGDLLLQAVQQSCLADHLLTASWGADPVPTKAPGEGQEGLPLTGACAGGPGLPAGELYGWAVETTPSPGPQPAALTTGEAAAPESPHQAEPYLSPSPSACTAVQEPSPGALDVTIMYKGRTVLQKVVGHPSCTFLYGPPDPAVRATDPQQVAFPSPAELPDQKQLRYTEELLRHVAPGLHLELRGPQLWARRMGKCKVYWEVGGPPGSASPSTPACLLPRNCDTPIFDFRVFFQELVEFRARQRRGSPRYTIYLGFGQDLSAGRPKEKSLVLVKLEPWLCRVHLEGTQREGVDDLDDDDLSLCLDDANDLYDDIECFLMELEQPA
Sequence | fitted relative affinity [z-score]
TGGCCTGTGCTATTTATAAGGGTGCTA | -0.101
TCATATTTAAGGCATCTGACTGTGCTA | -0.188
TCAGCTTTGCCTTCAGCACTGTGCTAG | 1.08
TTCGAACTGAGTTTCGATTAGTGCTAG | 3.78
GACGGTATCGGGCTGGGGACGTGCTAG | -0.177
TTGGATTTCGGGTTTCGATTAGTGCTA | 5.75
GACGATATCGGGACTGGAAACGTGCTA | -0.161
TTAGATCTCAGTTTCGATAAGTGCTAG | 2.5
TTACAACTGGGGTTTCGATTAGTGCTA | 3.08
TTAGGACTACTTTTCCTTTAGTGCTAG | 2.21
TACGGTATCGACTTTCGGGACGTGCTA | 3.28
TTAGGTTTCGGGTATCAGTTAGTGCTA | 5.52
TCATCTTTGCTCATTTTTACTGTGCTA | 1.37
TTACCTCTCACGCATCTGAAAGTGCTA | 1.54

Study 3
Target: CCNB1, cyclin fold, Cln2 fusion (human)
Technique: yeast growth competition, sequencing
Matrix: yeast
Notes: strong parent motif
Baseline: not given
Reading: higher = stronger binding
Starting sequence: PKN2 docking peptide (human); VSAVQKLDFSDTM
Variant | normalised enrichment score
VSAVQTLDFSDTM [K6T] | 0.469
VSAVQKLDFSDGM [T12G] | 2.38
VSEVQKLDFSDTM [A3E] | -0.0487
VSAIQKLDFSDTM [V4I] | 1.46
VCAVQKLDFSDTM [S2C] | 1.48
VSAVQKLDESDTM [F9E] | 0.238
VSAVQKLDFSDNM [T12N] | 1.71
VSAVQKLDFFDTM [S10F] | 1.04
VSAVQKLDFSDCM [T12C] | 2.01

Further values, each from its own experiment
Molecule | target | test | system | setting | scale | endpoint | value
PhoQ, residues 284 288 289 292 302 303 SASVAL | PhoP, residues 12 14 15 18 19 NMSFL (Escherichia coli, UniProt P23836) | Sort-seq, measured: YFP reporter | E. coli | PhoQ-PhoP variant library, with: 10 µM Mg2+ | baseline: high Mg2+ state, higher = stronger signaling | fold induction | 20.3

For quick reference, copied from above (study 2):
Sequence | fitted relative affinity [z-score]
TCAGCTTTGCCTTCAGCACTGTGCTAG | 1.08
TTCGAACTGAGTTTCGATTAGTGCTAG | 3.78
GACGGTATCGGGCTGGGGACGTGCTAG | -0.177
